Published values pooled from the literature.
Each numbered part is a random draw from the data of one study; scales do not carry over between parts.

Set 1
Target: Prothrombin, mature alpha-thrombin (F2, Homo sapiens, UniProt P00734)
Method: aptamer microarray, sandwich
Molecule type: DNA with 2'F-ANA
Matrix: in vitro
Concentration: 200 nM
Notes: whole 15-mer aptamer, many near background
With: Cy3 exosite-II aptamer, 400 nM
Reading: higher = stronger binding
`GGTTGGTGTGGTTGG (2'F-ANA at 2 3 4 5 6 9 11 12 13 14 15)` — result for “mean fluorescence intensity”: 50.4 a.u.
Under “mean fluorescence intensity”, `GGTTGGTGTGGTTGG (2'F-ANA at 3 4 7 8 11 15)` is recorded as 665 a.u.
For `GGTTGGTGTGGTTGG (2'F-ANA at 1 2 3 4 5 9 11 15)`, “mean fluorescence intensity” read 54.5 a.u.
`GGTTGGTGTGGTTGG (2'F-ANA at 1 5 7 8 12 15)` — result for “mean fluorescence intensity”: 129 a.u.

Set 2
Target: Phosphate system positive regulatory protein PHO4, full length, GST-tagged (PHO4, Saccharomyces cerevisiae, UniProt P07270, residues 1-312)
Method: competition protein-binding microarray
Molecule type: double-stranded DNA, one strand shown
Matrix: in vitro
Concentration: 2 µM
Notes: whole 60-bp probe, lowest competitor level
With: Cbf1 competitor, 0.05 µM
Reading: higher = stronger binding
Constant ends, left off below: … GTCTTGATTCGCTTGACGCTGCTG
Residues (chain): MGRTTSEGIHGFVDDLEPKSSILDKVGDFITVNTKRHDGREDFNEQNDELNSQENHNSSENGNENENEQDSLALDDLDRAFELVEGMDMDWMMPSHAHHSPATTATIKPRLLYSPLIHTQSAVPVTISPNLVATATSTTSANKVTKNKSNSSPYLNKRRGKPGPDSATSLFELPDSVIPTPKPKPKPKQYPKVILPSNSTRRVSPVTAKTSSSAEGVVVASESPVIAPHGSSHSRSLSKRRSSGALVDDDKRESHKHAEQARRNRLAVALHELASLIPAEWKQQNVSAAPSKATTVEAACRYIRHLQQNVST
With `CTGTAGTAACAAAAACATGTGGGATGCCAAATTGTA` the fluorescence intensity was 12000 a.u.
`ACAACAAAGTCGAGTCACGTTTCTCGCAATTATTAC` gave a fluorescence intensity of 11700 a.u.
For `GATGCCGAAGATTTCCATGTGGCTGAGGAAGTTAAA`, the fluorescence intensity was 6560 a.u.
The fluorescence intensity of `TGGAATCGAGTGTCGCAATAGACCAAACTGAAGTAC` is reported as 3580 a.u.
For `CGTCCTAGTGATTGGGAGGTGGGTGCCATGAGGAAG`, the fluorescence intensity was 6970 a.u.
For `CGGGGTTAAGTTTGAGGAGTGGGTGGCTTGCAGCAG`, the fluorescence intensity was 5250 a.u.

Set 3
Target: Histone acetyltransferase KAT6A, both winged helices, GST fusion (KAT6A, Homo sapiens, UniProt Q92794, residues 1-181)
Method: protein binding microarray
Molecule type: double-stranded DNA, one strand shown
Matrix: in vitro
Concentration: not given
Notes: 8-mer, flanks averaged, mean of 2 arrays, mostly near background
Baseline: not given
Reading: higher = stronger binding
Target sequence (chain): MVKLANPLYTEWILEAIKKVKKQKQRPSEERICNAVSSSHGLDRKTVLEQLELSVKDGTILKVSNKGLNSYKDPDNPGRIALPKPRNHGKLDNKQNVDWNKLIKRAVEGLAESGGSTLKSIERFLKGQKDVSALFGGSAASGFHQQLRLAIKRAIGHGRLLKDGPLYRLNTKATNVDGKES
For `ATGAGGTG`, the E-score was -0.194.
`ATTTGGAA` gave an E-score of -0.167.
With `CATCGGAC` the E-score was 0.0486.
With `AAACGCTG` the E-score was 0.0281.
`ACATGACA` gave an E-score of -0.123.
`CCCACCAG` gave an E-score of -0.232.

Single results of other studies
`PhoQ, residues 284 288 289 292 302 303 NLCILV` gave a fold induction of 0.852 (PhoP, residues 12 14 15 18 19 NIMAP (Escherichia coli, UniProt P23836); Sort-seq, item: YFP reporter; E. coli; PhoQ-PhoP variant library, with: 10 µM Mg2+; baseline: high Mg2+ state, higher = stronger signaling).

Excerpt of the above (set 2):
For `GATGCCGAAGATTTCCATGTGGCTGAGGAAGTTAAA`, the fluorescence intensity was 6560 a.u.
With `CTGTAGTAACAAAAACATGTGGGATGCCAAATTGTA` the fluorescence intensity was 12000 a.u.
